Published values of several laboratories.
Parts stem from different laboratories: compare values within a part only. Values joined by “and” are separate records of one study, mostly repeats; a detail may differ.

Sample 1
Compound: Cc1ccc(O)c(C)c1-c1cnc2[nH]c(-c3cnc(N4CCC5(CC4)CC(N4CCN(c6ccc(NC7CCC(=O)NC7=O)cc6F)CC4)CO5)nc3)cc2c1C#N (stereo not drawn)
PKMYT1: Membrane-associated tyrosine- and threonine-specific cdc2-inhibitory kinase (PKMYT1, Homo sapiens, UniProt Q99640)
Chain of UniProt Q99640 (whole entry, looked up): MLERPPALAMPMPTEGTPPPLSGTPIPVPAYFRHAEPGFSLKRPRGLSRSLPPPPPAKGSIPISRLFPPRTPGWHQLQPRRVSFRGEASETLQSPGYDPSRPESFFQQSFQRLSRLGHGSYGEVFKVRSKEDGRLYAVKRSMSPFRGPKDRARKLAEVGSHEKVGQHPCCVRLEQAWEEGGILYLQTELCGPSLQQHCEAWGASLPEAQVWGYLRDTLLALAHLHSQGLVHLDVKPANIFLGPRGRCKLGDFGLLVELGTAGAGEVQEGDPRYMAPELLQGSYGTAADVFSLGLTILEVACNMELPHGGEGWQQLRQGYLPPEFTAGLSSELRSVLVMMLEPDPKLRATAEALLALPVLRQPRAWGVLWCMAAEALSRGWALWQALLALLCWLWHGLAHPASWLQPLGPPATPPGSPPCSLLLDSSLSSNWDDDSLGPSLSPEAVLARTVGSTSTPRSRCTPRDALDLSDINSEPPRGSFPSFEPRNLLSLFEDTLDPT
target or system | assay | setting | inhibition [%]
MDA-MB-157 | measured: CDK1 phospho-Thr14 | 333.33 nM | 57.2
PKMYT1 | cell-free assay, inhibitor, TR-FRET | 460 pM | 8.42
HCC1599 | measured: CDK1 phospho-Thr14 | 0.05 nM | -10.1
HCC1599 | measured: CDK1 phospho-Thr14 | 111.11 nM | 40.6
PKMYT1 | cell-free assay, inhibitor, TR-FRET | 37.04 nM | 93.3
PKMYT1 | cell-free assay, inhibitor, TR-FRET | 0.1111 µM | 98.8
PKMYT1 | cell-free assay, inhibitor, TR-FRET | 12.35 nM | 78.7
PKMYT1 |  | 0.1111 µM | 98.6
HuCCT-1 | measured: CDK1 phospho-Thr14 | 1000 nM | 95
HCC1599 | measured: CDK1 phospho-Thr14 | 0.46 nM | -12.3
HCC1599 | measured: CDK1 phospho-Thr14 | 1.37 nM | -8.2
PKMYT1 | cell-free assay, inhibitor, TR-FRET | 1 µM | 100
HuCCT-1 | measured: CDK1 phospho-Thr14 | 37.04 nM | 54.3
PKMYT1 | cell-free assay, inhibitor, TR-FRET | 0.3333 µM | 99.7
HuCCT-1 | measured: CDK1 phospho-Thr14 | 0.46 nM | 16.5

Sample 2
Target: Sodium-dependent neutral amino acid transporter B(0)AT1 (SLC6A19, Homo sapiens, UniProt Q695T7)
Chain of UniProt Q695T7 (whole entry, looked up): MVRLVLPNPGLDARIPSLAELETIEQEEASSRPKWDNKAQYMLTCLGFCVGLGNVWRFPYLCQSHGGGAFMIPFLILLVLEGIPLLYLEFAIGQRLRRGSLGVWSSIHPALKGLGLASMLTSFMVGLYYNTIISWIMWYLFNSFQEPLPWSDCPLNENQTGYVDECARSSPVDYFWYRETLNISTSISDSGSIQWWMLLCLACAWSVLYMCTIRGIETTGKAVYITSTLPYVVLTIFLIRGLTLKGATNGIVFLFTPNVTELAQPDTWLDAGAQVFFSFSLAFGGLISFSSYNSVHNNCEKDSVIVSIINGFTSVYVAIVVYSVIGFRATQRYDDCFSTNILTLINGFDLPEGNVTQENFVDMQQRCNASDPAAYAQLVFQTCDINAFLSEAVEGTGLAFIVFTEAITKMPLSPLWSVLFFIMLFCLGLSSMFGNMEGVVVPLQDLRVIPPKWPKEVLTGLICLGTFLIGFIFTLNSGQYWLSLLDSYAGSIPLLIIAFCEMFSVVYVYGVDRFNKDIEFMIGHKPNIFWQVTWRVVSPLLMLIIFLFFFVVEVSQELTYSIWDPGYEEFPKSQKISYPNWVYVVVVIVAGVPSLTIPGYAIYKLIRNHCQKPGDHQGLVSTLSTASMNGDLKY
Method: FLIPR membrane potential
Cell line: CHO-BC
Concentration: 30 µM
Setting: unit not given
Relative to: uninhibited
Compound | remaining activity
CCCCNC(=O)COc1cc(C)c(Cl)c(C)c1 | 1 and 1.14 and 0.965 and 1.05
Cc1cc(NCC(=O)NC(C)C)cc(C)c1Cl | 0.103 and 0.189 and 0.141 and 0.177
Cc1cc(OCC(=O)NC(C)C)ccc1Cl | 0.378 and 0.362 and 0.112 and 0.103
CON(C)C(=O)COc1cc(C)c(Cl)c(C)c1 | 1 and 1.1 and 1.12 and 1.01
Cc1cc(Cl)ccc1OCC(=O)NC(C)C | 0.832 and 0.928 and 0.919 and 0.889
Cc1cc(OCC(=O)OC(C)C)cc(C)c1Cl | 1.01 and 0.911 and 0.898 and 1.08

Sample 3
SMILES: C[C@@H]1CN(c2ccc(-c3cc(C(=O)NCCOCCOCCOCCOCCNC(=O)Cn4cc(-c5[nH]cc(C(=O)N[C@@H](CC(N)=O)c6ccc(F)c(Cl)c6)c5-c5ccc(Cl)cc5F)cn4)ccc3F)cc2NC(=O)c2c[nH]c(=O)cc2C(F)(F)F)C[C@H](C)N1C
Effect on: thermal unfolding
Method: differential scanning fluorimetry
Concentration: 5.5 µM
Direction: higher = more unfolded
DCAF1: DDB1- and CUL4-associated factor 1 (DCAF1, Homo sapiens, UniProt Q9Y4B6)
Chain of UniProt Q9Y4B6 (whole entry, looked up): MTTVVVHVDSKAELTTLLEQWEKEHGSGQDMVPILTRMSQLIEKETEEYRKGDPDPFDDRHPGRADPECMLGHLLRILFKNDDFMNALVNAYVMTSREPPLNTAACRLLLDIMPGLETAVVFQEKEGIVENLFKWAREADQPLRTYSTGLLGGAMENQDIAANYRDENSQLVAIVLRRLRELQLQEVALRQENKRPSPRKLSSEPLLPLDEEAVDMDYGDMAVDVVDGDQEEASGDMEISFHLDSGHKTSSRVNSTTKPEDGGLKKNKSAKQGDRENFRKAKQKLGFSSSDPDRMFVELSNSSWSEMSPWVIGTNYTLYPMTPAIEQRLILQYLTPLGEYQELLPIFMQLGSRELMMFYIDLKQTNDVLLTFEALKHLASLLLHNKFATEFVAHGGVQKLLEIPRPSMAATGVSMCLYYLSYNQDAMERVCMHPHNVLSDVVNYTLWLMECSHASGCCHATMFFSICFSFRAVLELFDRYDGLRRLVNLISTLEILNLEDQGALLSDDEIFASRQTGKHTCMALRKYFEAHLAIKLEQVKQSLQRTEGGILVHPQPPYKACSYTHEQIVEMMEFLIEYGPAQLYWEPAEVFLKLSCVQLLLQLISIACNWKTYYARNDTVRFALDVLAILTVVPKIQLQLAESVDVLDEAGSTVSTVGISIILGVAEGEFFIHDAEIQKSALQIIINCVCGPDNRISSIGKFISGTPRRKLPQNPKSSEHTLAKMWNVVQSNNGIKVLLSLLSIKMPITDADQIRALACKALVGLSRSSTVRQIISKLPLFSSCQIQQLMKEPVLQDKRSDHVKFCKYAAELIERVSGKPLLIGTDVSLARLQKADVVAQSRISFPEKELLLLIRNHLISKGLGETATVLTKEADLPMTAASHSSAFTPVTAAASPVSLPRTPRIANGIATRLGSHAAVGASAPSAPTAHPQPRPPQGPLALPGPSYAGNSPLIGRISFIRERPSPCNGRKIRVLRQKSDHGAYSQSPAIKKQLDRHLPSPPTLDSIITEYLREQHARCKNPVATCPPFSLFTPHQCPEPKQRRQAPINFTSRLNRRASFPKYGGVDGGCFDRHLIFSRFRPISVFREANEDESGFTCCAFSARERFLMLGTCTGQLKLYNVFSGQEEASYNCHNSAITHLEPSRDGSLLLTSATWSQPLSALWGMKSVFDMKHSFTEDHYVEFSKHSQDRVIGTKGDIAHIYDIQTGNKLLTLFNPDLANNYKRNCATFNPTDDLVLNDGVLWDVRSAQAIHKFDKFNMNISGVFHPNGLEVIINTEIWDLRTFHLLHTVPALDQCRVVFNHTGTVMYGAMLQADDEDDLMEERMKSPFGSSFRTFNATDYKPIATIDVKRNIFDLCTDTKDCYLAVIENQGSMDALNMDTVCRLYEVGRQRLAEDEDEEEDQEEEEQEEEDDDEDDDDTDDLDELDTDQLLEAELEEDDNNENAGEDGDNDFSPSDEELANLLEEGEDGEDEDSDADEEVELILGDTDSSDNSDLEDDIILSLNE
WDR5: WD repeat-containing protein 5 (WDR5, Homo sapiens, UniProt P61964)
target | setting | SYPRO Orange fluorescence [a.u.]
DCAF1 | 47.8 °C | 13500
WDR5 | 52.81 °C | 14400
WDR5 | 39 °C | 14400
DCAF1 | 63.01 °C | 51500
DCAF1 | 68.21 °C | 56000
WDR5 | 81.61 °C | 28600
DCAF1 | 57.41 °C | 26400
WDR5 | 68.01 °C | 6900
WDR5 | 40.6 °C | 14200
WDR5 | 25.2 °C | 14800
WDR5 | 94.21 °C | 38900

Sample 4
Compound: CCN1/C(=C/C=C2\CCCC(/C=C/C3=[N+](CC)c4ccccc4C3(C)C)=C2NCCCCCCCCN2CCC(Nc3nc4ccccc4n3Cc3ccc(F)cc3)CC2)C(C)(C)c2ccccc21
Cell line: U-87 MG
Concentration: concentration not given
Relative to: DMSO
assay | log2 fold change
measured: PEA15 mRNA | 1.4
measured: GPR68 mRNA | 1.12
measured: PHF19 mRNA | -1.62
measured: BET1 mRNA | 1.14
measured: KRTAP2-3 | -5.04
measured: JARID2 mRNA | 1.44
measured: THRA mRNA | -1.09
measured: DAPK1 mRNA | -2.98
measured: LAMB3 mRNA | -1
measured: SHMT1 mRNA | -1.4
measured: ZMYND10 mRNA | -2.01
measured: INHBA mRNA | 1.93
measured: MACO1 mRNA | 1.25
measured: WEE1 mRNA | -2.13
measured: XYLT2 mRNA | -1.09
measured: NIPA1 mRNA | 1.07
